Measurements collected from several papers.
Protocols differ between the studies behind these lines. “And” joins repeats or separate records; there may be more than shown. ± marks the error that the study gave.

| Molecule | target | assay | system | conditions | scale | measurement | result |
| --- | --- | --- | --- | --- | --- | --- | --- |
| CC(C)C[C@H](NC(=O)[C@H](CCc1ccccc1)NC(=O)CN1CCOCC1)C(=O)N[C@@H](Cc1ccccc1)C(=O)N[C@@H](CC(C)C)C(=O)[C@@]1(C)CO1 | proteasome | enzyme activity | human, whole blood and PBMC | dose not given, 1 h after dose, cycle days 1, 8, 1, cycle 2 |  | inhibition | ≥ 90% |
| CC1(C)CC(=O)C2=C(C1)Oc1ncnc(Nc3ccc(F)cc3)c1C2c1ccccc1F (stereo not shown) | calf thymus DNA | UV-visible absorption titration |  | 20 µM, about 2% DMSO |  | binding constant | 450000 M⁻¹ |
| CCCOC(=O)c1cc(O)c(O)c(O)c1 | lysine-containing peptide | mass spectrometry |  | 24 h, pH 10.2, room temperature |  | maximal peptide depletion | -59.2% |
| GKVKVGVNGFGRIGRLVTRAAFNSGKVDIVA | Candida albicans Sap3 | enzyme activity, inhibitor | peptide | concentration not given, 30 min, pH 3.2, 37 °C, with: BSA substrate |  | inhibition | no inhibition |
| EEEPMNL | human syntenin PDZ1-2 tandem | binding, proteomic peptide phage display | peptide | phage pools rounds 4 and 5 | higher = stronger enrichment | NGS read count | 165 |
| O=c1c(O)c(-c2ccc(O)c(O)c2)oc2cc(O)cc(O)c12 | class IIb HDAC | enzyme activity | bovine heart lysate |  |  | IC50 | 37 µM |
| CC[N+](CC)(CC)CC | Na,K-ATPase (rat) | Na,K pump current, inhibitor, whole-cell voltage clamp | rat ventricular myocytes | pH 7.4, 37 °C, 0 mV, Na+-free bath, with: competitive with extracellular K+ |  | Ki | 26600 ± 700 µM |
| C[N+](C)(C)CCOC(N)=O | Yes kinase, rat | Western blot, item: Yes pY416 | pancreatic acini | 10 µM, 1 min | reference: untreated control | phosphorylation level | 207 ± 28% |
| RGAVVTGR-NH2 (C-amide) | α-synuclein | amyloid formation, inhibitor, circular dichroism | peptide | 2 molar equivalents, pH 6.6, 37 °C, with: HFIP 2 vol-% | reference: uninhibited control | β-structure formation | 74 ± 23% |
| CC[C@H](C)[C@H](NC(=O)[C@H](CC(=O)O)NC(=O)[C@H](CCCCN)NC(=O)[C@H](CCC(=O)O)NC(=O)[C@H](CCC(=O)O)NC(=O)[C@H](CCCCN)NC(C)=O)C(=O)N[C@@H](CC(N)=O)C(=O)N[C@@H](CC(N)=O)C(=O)N[C@@H](CC(N)=O)C(=O)N[C@H](C(=O)N[C@@H](CCCCN)C(=O)N[C@@H](CCCCN)C(=O)N[C@H](C(N)=O)[C@@H](C)O)C(C)C | SPSB2-iNOS interaction, mouse | protein binding, inhibitor, immunoprecipitation Western blot | cell lysates | 1 µM |  | inhibition | inhibited |
| Nc1nc2c(ncn2[C@@H]2O[C@@H]3COP(=O)(O)O[C@H]3[C@H]2O)c(=O)[nH]1 | cone cyclic nucleotide-gated channel | ion current, agonist, inside-out patch clamp |  | pH 7.5, room temperature, after EDTA/EGTA, -40 mV, ph 7.5, with: Ca2+ 20 µM, Mg2+ 100 µM |  | EC50 | 61.4 µM and 78 µM |
| RWFYFN / DRGSGK / WEKRWD (cyclic) | α-synuclein | inhibitor, ThT fluorescence | peptide | 2 molar equivalents, pH 6.6, 37 °C, with: HFIP 2 vol-% | reference: uninhibited control | amyloid formation | 89 ± 13% |
| C/C=C(/C)C(=O)O[C@H]1C(C)=C2[C@H]([C@@H]1OC(=O)CCCCCCC)[C@@](C)(OC(C)=O)C[C@H](OC(=O)CCC)[C@@]1(O)[C@H]2OC(=O)[C@@]1(C)O | Yes kinase, rat | item: Yes pY416 |  | 1 µM, 5 min | reference: untreated control | phosphorylation level | 171 ± 14% |
| LEQKAASAHNSYIVLAIENSFMTSFSK | VEGFR-3-Fc, recombinant, mouse | pull-down, western blot | peptide | concentration not given, 2 h, pH 7.4, 4 °C |  | binding | inhibited |
| C=CC(C)(CO)c1cc2c(=O)c(-c3ccc(O)cc3O)coc2cc1O (stereo not shown) | quinone reductase | inducer | Hepa1c1c7 |  |  | concentration doubling activity | 13 µM |
| O=Cc1ccc(CO)[nH]1 | quinone reductase | inducer | Hepa-1c1c7 | 48 h |  | concentration doubling activity | > 100 µM |
| C[N+](C)(C)CCCCC(NC(=O)OCC1c2ccccc2-c2ccccc21)C(=O)O (stereo not shown) | LytA C-terminal domain, Streptococcus pneumoniae | binding, ITC |  | pH 7.4, 16 °C |  | Ka | 18700 ± 2200 M⁻¹ |
| COc1cc(/C=C/C(=O)O)cc(OC)c1O | BCRP (ABCG2), rat | protein expression, western blot | Wistar rats, intestine | 40 mg/kg | reference: untreated rats | inhibition | 83.2% |
| COc1cc(NC(=O)c2cc(-c3cccc(O)c3)on2)cc(OC)c1OC | mitochondrial permeability transition pore, mouse | mitochondrial swelling inhibition | isolated mouse liver mitochondria | with: Ca2+ |  | EC50 | < 0.39 µM |
| SVGKDVF | human syntenin PDZ1-2 tandem | binding, proteomic peptide phage display | peptide | phage pools rounds 4 and 5 | higher = stronger enrichment | NGS read count | 101 |

| Molecule | target | assay | system | conditions | scale | measurement | result |
| --- | --- | --- | --- | --- | --- | --- | --- |
| O=c1cc(-c2ccccc2)oc2cc(O)c(O)c(O)c12 | class IIa HDAC | enzyme activity | bovine heart lysate |  |  | IC50 | 100 µM |
| O=C1OC(=O)c2ccccc21 | lysine-containing peptide | mass spectrometry |  | 24 h, pH 10.2, room temperature |  | maximal peptide depletion | -20.6% |
| O=C1Nc2ccccc2/C1=C1/Nc2ccccc2C1=O | class IIb HDAC | enzyme activity, inhibitor |  |  |  | IC50 | 15 µM |
| COc1cc(F)c(C(C)C)cc1-c1ccc(C(F)(F)F)cc1CN1C(=O)O[C@H](c2cc(C(F)(F)F)cc(C(F)(F)F)c2)[C@@H]1C | CETP, human |  | human plasma | 0.1 to 10 µM, 21 h |  | pre-beta-HDL formation decrease | > 46% |
| CC(C)(O)c1cn(-c2ccc(-c3cc(F)c(CO)c(S(C)(=O)=O)c3)cc2)c(C(C)(C)c2cccc(F)c2Cl)n1 | nuclear hormone receptors except PXR | agonist | cells |  |  | EC50 | > 10 µM |
| O=C1c2c(O)cc(O)cc2O[C@H](c2cc(O)c(O)c(O)c2)[C@H]1O | GABAA receptor, rat | mIPSC enhancement, positive allosteric modulator, whole-cell patch clamp | hippocampal neurons, cultured | DIV14, no ethanol |  | EC50 | ~0.2 µM |
| IRDFLRW | human syntenin PDZ1-2 tandem | binding, proteomic peptide phage display | peptide | phage pools rounds 4 and 5 | higher = stronger enrichment | NGS read count | 252 |
| N-formylmethionyl-leucyl-phenylalanine | alpha1-antichymotrypsin, human | protein synthesis | HepG2 | 6 h, 37 °C, concentration-dependent increase |  | concentration | 20 nM |
| CN1CCN(CCCN2c3ccccc3Sc3ccc(C(F)(F)F)cc32)CC1 | anoctamin-2 rat | Ca2+-activated Cl- current | HEK293 transfected | 20 µM, -70 mV, with: free Ca2+ 7.5 µM |  | current inactivation | decreased |
| CCCCOc1cc(CC2CNC(=O)N2)ccc1OC (stereo not shown) | PDE4 | inhibitor | HEK293 cells |  |  | Ki | 0.15 ± 0.02 µM |
| CNC(=O)c1cc(Oc2ccc(NC(=O)Nc3cc(C(C)(C)C)nn3-c3ccc4ncccc4c3)c(F)c2)ccn1.Cc1ccc(S(=O)(=O)O)cc1 | human STAT5 | item: phospho-STAT5 | human, peripheral blood leukaemia cells | 300 mg, day 1 |  | inhibition | ~65% |
| COc1ccc(-c2cc(C(=O)Nc3cc(Cl)ccc3C)no2)cc1O | mitochondrial permeability transition pore, mouse | mitochondrial swelling inhibition | isolated mouse liver mitochondria | with: Ca2+ |  | EC50 | 7.56e-06 ± 1.22e-06 µM |
| GSGTDDE | human syntenin PDZ1-2 tandem | binding, proteomic peptide phage display | peptide | phage pools rounds 4 and 5 | higher = stronger enrichment | NGS read count | 113 |
| Cc1ccc(C(=O)Nc2ccc(S(=O)(=O)O)c3cc(S(=O)(=O)O)cc(S(=O)(=O)O)c23)cc1NC(=O)c1cccc(NC(=O)Nc2cccc(C(=O)Nc3cc(C(=O)Nc4ccc(S(=O)(=O)O)c5cc(S(=O)(=O)O)cc(S(=O)(=O)O)c45)ccc3C)c2)c1 | calf thymus histones | binding, fluorescence titration |  | pH 7.4, 25 °C, unfractionated histone mixture |  | Kd | 0.25 µM |
| COC(=O)C(C)n1c(C=O)ccc1CO (stereo not shown) | quinone reductase | inducer | Hepa-1c1c7 | 48 h |  | concentration doubling activity | 43.1 µM |
| O=C1c2c(O)cc(O)cc2O[C@H](c2cc(O)c(O)c(O)c2)[C@H]1O | class IIb HDAC | enzyme activity | bovine heart lysate |  |  | IC50 | 26 µM |
| ETGKLCS | human syntenin PDZ1-2 tandem | binding, proteomic peptide phage display | peptide | phage pools rounds 4 and 5 | higher = stronger enrichment | NGS read count | 92 |
| Nc1nc2sc(CCc3ccc(C(=O)N[C@@H](CCC(=O)O)C(=O)O)cc3)cc2c(=O)[nH]1 | human folate receptor alpha |  | RT16 | concentration not given, with: [3H]folic acid | reference: folic acid | relative binding affinity | 0.25 to 0.45 |
| ASGDLCV | human syntenin PDZ1-2 tandem | binding, proteomic peptide phage display | peptide | phage pools rounds 4 and 5 | higher = stronger enrichment | NGS read count | 114 |
| CC(C)c1cccc(C(C)C)c1O | GABA-A receptor rat | GABA-evoked chloride current, positive allosteric modulator, whole-cell patch clamp | embryonic rat cortical neurons | pH 7.4, holding -60 mV, with: GABA 5 µM |  | EC50 | 6 µM |
